Assay results from different studies.
Lines come from different studies, so protocols differ. ± marks the error that the study gave.
UniProt P08684, sequence (whole entry, unmodified, looked up): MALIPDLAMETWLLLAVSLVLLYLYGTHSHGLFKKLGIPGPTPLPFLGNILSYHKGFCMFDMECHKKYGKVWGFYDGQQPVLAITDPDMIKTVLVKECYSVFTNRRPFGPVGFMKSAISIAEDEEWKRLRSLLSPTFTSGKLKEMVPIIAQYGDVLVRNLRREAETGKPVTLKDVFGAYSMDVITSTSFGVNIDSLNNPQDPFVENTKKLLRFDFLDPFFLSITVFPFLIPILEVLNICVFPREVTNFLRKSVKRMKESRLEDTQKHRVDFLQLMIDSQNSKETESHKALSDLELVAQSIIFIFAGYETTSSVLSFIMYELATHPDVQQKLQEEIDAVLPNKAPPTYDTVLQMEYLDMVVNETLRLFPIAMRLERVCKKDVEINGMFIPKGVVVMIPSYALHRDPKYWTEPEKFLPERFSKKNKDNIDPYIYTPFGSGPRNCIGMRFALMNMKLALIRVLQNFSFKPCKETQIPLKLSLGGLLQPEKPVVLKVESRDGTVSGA
UniProt P31423, sequence (whole entry, looked up): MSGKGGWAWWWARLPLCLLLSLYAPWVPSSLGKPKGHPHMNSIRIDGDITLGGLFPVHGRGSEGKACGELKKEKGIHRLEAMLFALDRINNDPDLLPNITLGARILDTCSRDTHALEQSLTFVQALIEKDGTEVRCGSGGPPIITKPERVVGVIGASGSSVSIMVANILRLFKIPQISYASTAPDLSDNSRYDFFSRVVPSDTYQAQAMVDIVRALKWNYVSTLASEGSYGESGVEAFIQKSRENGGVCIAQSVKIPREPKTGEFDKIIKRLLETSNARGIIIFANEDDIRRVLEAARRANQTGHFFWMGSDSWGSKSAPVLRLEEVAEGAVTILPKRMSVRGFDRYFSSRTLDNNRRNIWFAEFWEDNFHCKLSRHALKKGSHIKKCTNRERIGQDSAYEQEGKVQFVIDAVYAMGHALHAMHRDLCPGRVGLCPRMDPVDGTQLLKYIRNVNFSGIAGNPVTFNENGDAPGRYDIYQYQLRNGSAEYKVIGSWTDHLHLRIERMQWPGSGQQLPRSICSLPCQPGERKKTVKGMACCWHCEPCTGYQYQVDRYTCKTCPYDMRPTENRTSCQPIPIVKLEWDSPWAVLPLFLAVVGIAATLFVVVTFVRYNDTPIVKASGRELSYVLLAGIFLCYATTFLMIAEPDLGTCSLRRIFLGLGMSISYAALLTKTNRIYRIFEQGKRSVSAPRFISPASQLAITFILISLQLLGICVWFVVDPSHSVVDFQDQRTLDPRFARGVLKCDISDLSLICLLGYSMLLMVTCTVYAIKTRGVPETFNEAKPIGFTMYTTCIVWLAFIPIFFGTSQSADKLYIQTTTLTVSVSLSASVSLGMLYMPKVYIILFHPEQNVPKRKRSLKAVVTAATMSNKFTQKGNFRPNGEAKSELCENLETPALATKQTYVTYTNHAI
UniProt Q9UNP9, sequence (whole entry, looked up): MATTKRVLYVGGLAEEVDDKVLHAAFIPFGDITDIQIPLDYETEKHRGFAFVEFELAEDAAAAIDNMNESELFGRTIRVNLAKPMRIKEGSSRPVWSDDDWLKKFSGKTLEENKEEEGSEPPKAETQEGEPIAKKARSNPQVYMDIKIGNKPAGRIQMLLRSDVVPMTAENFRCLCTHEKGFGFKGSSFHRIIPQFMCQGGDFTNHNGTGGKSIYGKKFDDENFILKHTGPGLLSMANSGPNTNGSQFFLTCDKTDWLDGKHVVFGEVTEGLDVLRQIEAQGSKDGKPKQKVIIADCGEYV
UniProt Q6P179, sequence (whole entry, looked up): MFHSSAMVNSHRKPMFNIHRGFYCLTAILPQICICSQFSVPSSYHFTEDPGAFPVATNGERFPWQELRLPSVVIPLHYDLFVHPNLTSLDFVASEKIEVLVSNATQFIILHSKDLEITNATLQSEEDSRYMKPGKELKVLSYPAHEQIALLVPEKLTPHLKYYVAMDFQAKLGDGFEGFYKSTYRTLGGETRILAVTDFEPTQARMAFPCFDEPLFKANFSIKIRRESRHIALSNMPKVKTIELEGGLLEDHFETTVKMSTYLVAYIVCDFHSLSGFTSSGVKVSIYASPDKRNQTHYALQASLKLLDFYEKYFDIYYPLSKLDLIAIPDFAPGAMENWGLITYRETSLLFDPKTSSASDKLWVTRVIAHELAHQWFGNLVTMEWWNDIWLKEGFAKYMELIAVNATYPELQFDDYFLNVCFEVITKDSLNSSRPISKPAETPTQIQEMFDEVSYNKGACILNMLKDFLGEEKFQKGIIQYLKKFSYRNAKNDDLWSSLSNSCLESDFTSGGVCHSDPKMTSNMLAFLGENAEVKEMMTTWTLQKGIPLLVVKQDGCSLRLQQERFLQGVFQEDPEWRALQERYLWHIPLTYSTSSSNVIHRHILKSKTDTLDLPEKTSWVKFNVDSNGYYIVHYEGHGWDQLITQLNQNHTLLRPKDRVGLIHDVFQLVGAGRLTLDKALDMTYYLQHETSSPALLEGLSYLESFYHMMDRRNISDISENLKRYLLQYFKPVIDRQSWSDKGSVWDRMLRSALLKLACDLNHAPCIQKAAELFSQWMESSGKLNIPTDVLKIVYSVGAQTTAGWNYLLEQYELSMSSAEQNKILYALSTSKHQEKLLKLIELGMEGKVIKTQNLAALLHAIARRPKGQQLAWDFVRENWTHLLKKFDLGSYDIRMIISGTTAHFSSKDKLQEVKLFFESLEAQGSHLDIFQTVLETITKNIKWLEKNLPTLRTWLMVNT
UniProt P22309, sequence (whole entry, looked up): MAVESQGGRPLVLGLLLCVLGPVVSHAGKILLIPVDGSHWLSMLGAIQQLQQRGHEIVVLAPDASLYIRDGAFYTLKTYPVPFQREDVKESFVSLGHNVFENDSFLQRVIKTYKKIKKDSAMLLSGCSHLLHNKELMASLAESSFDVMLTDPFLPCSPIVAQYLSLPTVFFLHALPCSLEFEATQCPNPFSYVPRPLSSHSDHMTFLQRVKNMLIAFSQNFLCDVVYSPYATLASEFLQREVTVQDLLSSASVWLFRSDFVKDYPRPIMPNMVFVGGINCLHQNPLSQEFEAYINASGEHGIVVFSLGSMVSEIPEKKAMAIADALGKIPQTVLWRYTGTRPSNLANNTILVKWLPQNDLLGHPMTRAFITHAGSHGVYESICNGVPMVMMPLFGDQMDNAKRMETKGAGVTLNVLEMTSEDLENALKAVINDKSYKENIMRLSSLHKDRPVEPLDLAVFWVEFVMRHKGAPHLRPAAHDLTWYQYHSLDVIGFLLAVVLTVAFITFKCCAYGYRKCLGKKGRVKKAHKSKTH

O=C(Nc1ccc(N2C(=O)c3cccc([18F])c3C2=O)c(Cl)c1)c1ccccn1 — time of brain uptake and washout (Grm4 (Rattus norvegicus, UniProt P31423); PET; Sprague-Dawley rat, male; intravenous, 37 MBq): ≤ 20 min
O=C(C[C@H](Cc1ccc(O)cc1)n1nncc1CNS(=O)(=O)c1ccc(-c2ccccc2)s1)NO — lipophilic ligand efficiency (ERAP2 (Homo sapiens, UniProt Q6P179); inhibitor): 3.08
O=c1c(/C=N/NC(=S)N/N=C/c2cc(Cl)ccc2O)coc2ccccc12 — log stability constant (Cu2+ complex; potentiometric titration; 25 °C): 20.1
COc1ccc2cc(NC(=O)c3cc(-c4ccncc4)nc4ccccc34)ccc2c1 — koff slow phase (Cytochrome P450 3A4 (CYP3A4, Homo sapiens, UniProt P08684, S18F); binding, surface plasmon resonance; 10 °C): 0.006 s⁻¹
COc1cccc2c1C(=O)c1c(O)c3c(c(O)c1C2=O)CC(O)(C(=O)CO)CC3OC1CC(NC(=O)C[C@H](N)C(=O)O)C(O)C(C)O1 (some centres unmarked) — efflux ratio (P-glycoprotein (MDR1); MDCK-MDR1; 50 µg/mL, 60 min; baseline: Papp(B-A) over Papp(A-B)): 1.3 ± 0.11
O=C([O-])c1cccc(CN2CCNCCNCC2)n1.[Cu+2] — half-wave potential (copper(II/I) couple; cyclic voltammetry; pH 5, 25 °C): -0.555 V vs Ag/AgCl
COc1ccc(/C=C/c2ccc(-c3ccc(C)cn3)nc2)cc1 — emission wavelength shift (zinc(II); neutral aqueous solution; zinc saturation; baseline: zinc-free ligand, positive = red shift): 53 nm
O=C([O-])CN1CCN(CC(=O)[O-])CCN(Cc2cccc(C(=O)[O-])n2)CC1.[Cu+2] — half-wave potential (copper(II/I) couple; cyclic voltammetry; pH 5, 25 °C): -0.685 V vs Ag/AgCl
NC(=S)N/N=C/c1ccccc1O — log stability constant (Mn2+ complex; potentiometric titration; 25 °C): 15.2
N#CCc1cccc(Cl)c1-c1ccc2[nH][11c](=O)[nH]c2c1 — brain uptake increase (P-glycoprotein and Bcrp; ex vivo brain uptake; mouse; injection, 30 min, added: tariquidar and Ko143; baseline: without inhibitors): 282%
[64Cu+2].c1cnc(CNCc2ccc(CN3CCCN4CCNCCCN(CC4)CC3)cc2)nc1 — tissue uptake (CXCR4; NOD/SCID mouse, U87 and U87-stb-CXCR4 xenografts, kidney; iv, 240 min, ex vivo): 28.2 ± 3.07 %ID/g
O=c1c(/C=N/NC(=S)N/N=C/c2ccccn2)coc2ccccc12 — log stability constant (Mn2+ complex; potentiometric titration; 25 °C): 16.7
[64Cu+2].c1ccc(CNCc2ccc(CN3CCCN4CCNCCCN(CC4)CC3)cc2)nc1 — tissue uptake (CXCR4; NOD/SCID mouse, U87 and U87-stb-CXCR4 xenografts, stomach; iv, 240 min, ex vivo): 2.32 ± 0.35 %ID/g
O=C(O)[C@H]1O[C@@H](O[C@H]2C=Cc3c(cc4ccc5cccc6c7ccccc7c3c4c56)[C@@H]2O)[C@H](O)[C@@H](O)[C@@H]1O — Km (UGT1A1 (Homo sapiens, UniProt P22309); substrate): 78 ± 19 µM
O=c1c(/C=N/NC(=S)N/N=C/c2ccccc2O)coc2ccccc12 — log stability constant (Cu2+ complex; potentiometric titration; 25 °C): 20
C[C@H](N)C(=O)N[C@@H](CCCNC(=N)N)C(=O)N[C@H](C(=O)N[C@@H](CCCC[N+](C)(C)C)C(=O)N[C@@H](CCC(N)=O)C(=O)N[C@H](C(=O)N[C@@H](C)C(=O)N[C@@H](CCCNC(=N)N)C(=O)N[C@@H](CCCCN)C(=O)N[C@@H](CO)C(=O)N[C@H](C(=O)NCC(=O)NCC(=O)N[C@@H](CCCCN)C(=O)N[C@@H](C)C(=O)N[C@@H](Cc1ccc(O)cc1)C(=O)O)[C@@H](C)O)[C@@H](C)O)[C@@H](C)O — Kd fold increase (KMT2A/PPIE, PHD3; CYP33 RRM (Homo sapiens, UniProt Q03164+Q9UNP9); isothermal titration calorimetry; added: CYP33 RRM; baseline: free PHD3): ~5.7 fold
NC(=S)N/N=C/c1cc(Cl)ccc1O — log stability constant (Cu2+ complex; potentiometric titration; 25 °C): 19.1
C=CC(=O)Nc1cc(Nc2nccc(-c3cn(C)c4ccccc34)n2)c(OCC(F)(F)F)nc1N(C)CCN(C)C — compound metabolised (Cytochrome P450 3A4 (CYP3A4, Homo sapiens, UniProt P08684); substrate; recombinant enzyme; 3 µM, 1 h): ≥ 78%
CNC(=S)N/N=C/c1ccccn1 — log stability constant (Cu2+ complex; potentiometric titration; 25 °C): 18.4
O=C(O)[C@@H]1C[C@@H](O)CN1C(=O)[C@@H]1CCCN1 — ΔH (iron(III) ion; complex formation, Van't Hoff plot; aqueous 0.15 M NaCl; MAH−1 complex species): 238 kJ/mol

Repeated from above:
COc1ccc2cc(NC(=O)c3cc(-c4ccncc4)nc4ccccc34)ccc2c1 — koff slow phase (Cytochrome P450 3A4 (CYP3A4, Homo sapiens, UniProt P08684, S18F); binding, surface plasmon resonance; 10 °C): 0.006 s⁻¹
O=c1c(/C=N/NC(=S)N/N=C/c2ccccc2O)coc2ccccc12 — log stability constant (Cu2+ complex; potentiometric titration; 25 °C): 20
O=c1c(/C=N/NC(=S)N/N=C/c2cc(Cl)ccc2O)coc2ccccc12 — log stability constant (Cu2+ complex; potentiometric titration; 25 °C): 20.1
